{"data": "Literature values, collected from citations in different studies", "note": "Compare with care: the assays were run in different laboratories. Several values in a cell are separate wells, animals, samples, runs or records. ± gives the spread as reported.", "UniProt P23975, sequence (whole entry, looked up)": "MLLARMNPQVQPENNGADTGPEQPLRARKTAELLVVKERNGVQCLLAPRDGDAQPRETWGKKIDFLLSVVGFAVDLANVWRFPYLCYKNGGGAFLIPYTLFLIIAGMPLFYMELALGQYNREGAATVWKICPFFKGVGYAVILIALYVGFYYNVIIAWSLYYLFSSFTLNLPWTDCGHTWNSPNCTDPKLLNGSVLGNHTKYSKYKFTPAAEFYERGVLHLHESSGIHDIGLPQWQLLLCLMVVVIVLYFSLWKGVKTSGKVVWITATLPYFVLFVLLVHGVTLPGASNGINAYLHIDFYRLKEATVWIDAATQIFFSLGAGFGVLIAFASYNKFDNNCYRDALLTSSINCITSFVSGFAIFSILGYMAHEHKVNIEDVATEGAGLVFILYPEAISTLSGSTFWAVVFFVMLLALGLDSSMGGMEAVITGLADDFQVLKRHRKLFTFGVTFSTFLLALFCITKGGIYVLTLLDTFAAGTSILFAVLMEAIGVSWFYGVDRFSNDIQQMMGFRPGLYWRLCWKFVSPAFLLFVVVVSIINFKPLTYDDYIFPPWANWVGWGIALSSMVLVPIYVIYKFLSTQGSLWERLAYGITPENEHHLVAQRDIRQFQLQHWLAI"}
{"Structure (SMILES)": "c1ccc2c(c1)CCNC2c1c[nH]c2cccnc12 (stereo not drawn)", "target or system": "COLO 320 ABCB1-resistant colon", "assay": "cytotoxicity", "measurement": "IC50", "result": "> 100 µM"}
{"Structure (SMILES)": "CC(=O)N1CCN(C(=O)c2ccc(Nc3nccc(-c4ccc(Cl)cc4)n3)cc2)CC1", "target or system": "Caco-2", "measurement": "efflux ratio", "result": 1.5}
{"Structure (SMILES)": "COC1=CC(c2ccc[nH]2)=NC1=CNC1CCCCCC1.Cl", "target or system": "HepG2", "assay": "cytotoxicity", "measurement": "IC50", "result": "3.3 µg/mL"}
{"Structure (SMILES)": "CCOC(=O)C(c1cc(Cl)c2cccnc2c1O)N1CCOCC1 (stereo not drawn)", "target or system": "COLO 320 ABCB1-resistant colon", "assay": "cytotoxicity", "measurement": "IC50", "result": "1.56 µM and 1.79 µM and 1.81 µM"}
{"Structure (SMILES)": "COc1ccc(Nc2nc(Nc3ccc(OCC[18F])cc3)ncc2Br)cc1", "system": "S180 tumour-bearing mice", "conditions": "intravenous, 5 min", "scale": "baseline: tumour over bone", "measurement": "tumour to tissue ratio", "result": 1.8}
{"Structure (SMILES)": "COC1=CC(c2ccc[nH]2)=NC1=CNC(C)(C)C", "target or system": "HepG2", "assay": "cytotoxicity", "measurement": "IC50", "result": "19.1 µM"}
{"Structure (SMILES)": "CCn1c(C)c(CC(=O)N[C@@H](Cc2ccccc2)C(=O)N(C)c2cccc(Cl)c2)c2ccccc21", "target or system": "TZM-GFP", "measurement": "CC50", "result": "16 ± 6 µM"}
{"Structure (SMILES)": "COC1=CC(c2ccc[nH]2)=NC1=CNC12CC3CC(CC(C3)C1)C2.Cl", "target or system": "HepG2", "assay": "cytotoxicity", "measurement": "IC50", "result": "1.2 µg/mL"}
{"Structure (SMILES)": "CCOC(=O)C(c1cc(Cl)c2cccnc2c1O)c1c[nH]c2ccccc12 (stereo not drawn)", "target or system": "COLO 205", "assay": "cell viability", "measurement": "IC50", "result": "4.88 µM"}
{"Structure (SMILES)": "CCCCCC(=O)N[C@H](C(=O)N[C@@H](CCCC)C(=O)N[C@@H](CC(C)C)C(=O)[C@@]1(C)CO1)C(C)C", "target or system": "HepG2 cells", "assay": "cell viability", "measurement": "CC50", "result": "0.134 ± 0.087 µM"}
{"Structure (SMILES)": "CN(C(=O)[C@H](Cc1ccccc1)NC(=O)Cc1c[nH]c2ccc(O)cc12)c1ccc(Cl)cc1", "target or system": "TZM-GFP", "measurement": "CC50", "result": "> 100 µM"}
{"Structure (SMILES)": "Oc1c(Cc2c[nH]c3ncccc23)cc(Cl)c2cccnc12", "target or system": "COLO 205", "assay": "cytotoxicity", "measurement": "IC50", "result": "40.4 µM and 39.4 µM and 36.5 µM"}
{"Structure (SMILES)": "O=C(C=C(O)C(F)(F)C(F)(F)F)c1ccc(NCc2ccccc2)nc1", "target or system": "Plasmodium falciparum formate-nitrite transporter", "assay": "binding, FCCS", "system": "isolated protein", "measurement": "Ki", "result": "0.032 ± 0.015 µM"}
{"Structure (SMILES)": "Cc1ccc(N(C)C(=O)[C@H](Cc2ccccc2)NC(=O)Cc2c[nH]c3ccc(O)cc23)cc1", "target or system": "TZM-GFP", "measurement": "CC50", "result": "> 100 µM"}
{"Structure (SMILES)": "CN(C)c1ncnc2c1ncn2[C@@H]1O[C@H](CO)[C@@H](NC(=O)[C@@H](N)CSC23CC4CC(CC(C4)C2)C3)[C@H]1O", "target or system": "Vero", "assay": "MTT", "measurement": "CC50", "result": "17.6 µM"}
{"Structure (SMILES)": "CCCCCC(=O)N[C@@H](Cc1ccc(N)cc1)C(=O)N[C@@H](CCCC)C(=O)N[C@@H](CC(C)C)C(=O)[C@@]1(C)CO1", "target or system": "HepG2 cells", "assay": "cell viability", "measurement": "CC50", "result": "0.006 ± 0.005 µM"}
{"Structure (SMILES)": "O=c1ccc(OCCCN2CCCCC2)nn1-c1ccc(Cl)c(Cl)c1", "target or system": "Sodium-dependent noradrenaline transporter (SLC6A2, Homo sapiens, UniProt P23975)", "conditions": "1.0 µM", "measurement": "inhibition", "result": "31.9 ± 0.4%"}
{"Structure (SMILES)": "CCCCCC(=O)N[C@@H](Cc1ccc(NC(=O)OC(C)(C)C)cc1)C(=O)N[C@@H](CCCC)C(=O)N[C@@H](CC(C)C)C(=O)[C@@]1(C)CO1", "target or system": "HepG2 cells", "assay": "cell viability", "measurement": "CC50", "result": "0.08 ± 0.027 µM"}
{"Structure (SMILES)": "CCOC(=O)C(c1cc(Cl)c2cccnc2c1O)c1c[nH]c2ncccc12 (stereo not drawn)", "target or system": "COLO 205", "assay": "cytotoxicity", "measurement": "IC50", "result": "8.84 µM and 7.42 µM and 8.05 µM"}
{"Structure (SMILES)": "Cc1nc(-c2ccncc2)sc1C(=O)NC(C(=O)Nc1cccc(C(N)=O)c1)c1ccc(OCc2ccccc2)cc1 (stereo not drawn)", "target or system": "HeLa", "assay": "cytotoxicity", "measurement": "CC50", "result": "> 50 µM"}
{"Structure (SMILES)": "CCn1c(C)c(CC(=O)N[C@@H](Cc2ccccc2)C(=O)N(C)c2ccccc2)c2ccccc21", "target or system": "TZM-GFP", "measurement": "CC50", "result": "21 ± 0.7 µM"}
{"Structure (SMILES)": "CCCCCC(=O)NC(CC(=O)N(CC)CC)C(=O)NC(Cc1ccc(F)cc1)C(=O)NC(Cc1ccc(F)cc1F)C(=O)C1(C)CO1 (stereo not drawn)", "target or system": "HepG2", "measurement": "CC50", "result": "> 20 µM"}
{"Structure (SMILES)": "CCn1c(C)c(CC(=O)N[C@@H](Cc2ccccc2)C(=O)N(C)c2cccc(F)c2)c2ccccc21", "target or system": "TZM-GFP", "measurement": "CC50", "result": "20 ± 2 µM"}
{"Structure (SMILES)": "CCOC(=O)C(c1ccc2ccccc2c1O)c1c[nH]c2ccccc12 (stereo not drawn)", "target or system": "COLO 205 colon adenocarcinoma", "conditions": "concentration not given", "measurement": "cytotoxicity", "result": "no effect"}
{"Structure (SMILES)": "CCn1c(C)c(CC(=O)N[C@@H](Cc2ccccc2)C(=O)N(C)c2ccc(Cl)cc2)c2ccccc21", "target or system": "TZM-GFP", "measurement": "CC50", "result": "27 ± 11 µM"}
{"Structure (SMILES)": "CCCCCC(=O)N[C@@H](Cc1ccc(N)cc1)C(=O)N[C@@H](CCCC)C(=O)N[C@@H](Cc1ccccc1)C(=O)[C@@]1(C)CO1", "target or system": "HepG2 cells", "assay": "cell viability", "measurement": "CC50", "result": "3.41 ± 2.31 µM"}
{"Structure (SMILES)": "Oc1c(Cc2c[nH]c3ccccc23)cc(Cl)c2cccnc12", "target or system": "COLO 205", "assay": "cell viability", "measurement": "IC50", "result": "13.1 µM"}
